Assay results of several laboratories.
Numbered parts are unrelated; each lists some results of a single study. Values joined by “and” are separate records of one study, mostly repeats; a detail may differ.
UniProt Q04912, sequence (whole entry, looked up): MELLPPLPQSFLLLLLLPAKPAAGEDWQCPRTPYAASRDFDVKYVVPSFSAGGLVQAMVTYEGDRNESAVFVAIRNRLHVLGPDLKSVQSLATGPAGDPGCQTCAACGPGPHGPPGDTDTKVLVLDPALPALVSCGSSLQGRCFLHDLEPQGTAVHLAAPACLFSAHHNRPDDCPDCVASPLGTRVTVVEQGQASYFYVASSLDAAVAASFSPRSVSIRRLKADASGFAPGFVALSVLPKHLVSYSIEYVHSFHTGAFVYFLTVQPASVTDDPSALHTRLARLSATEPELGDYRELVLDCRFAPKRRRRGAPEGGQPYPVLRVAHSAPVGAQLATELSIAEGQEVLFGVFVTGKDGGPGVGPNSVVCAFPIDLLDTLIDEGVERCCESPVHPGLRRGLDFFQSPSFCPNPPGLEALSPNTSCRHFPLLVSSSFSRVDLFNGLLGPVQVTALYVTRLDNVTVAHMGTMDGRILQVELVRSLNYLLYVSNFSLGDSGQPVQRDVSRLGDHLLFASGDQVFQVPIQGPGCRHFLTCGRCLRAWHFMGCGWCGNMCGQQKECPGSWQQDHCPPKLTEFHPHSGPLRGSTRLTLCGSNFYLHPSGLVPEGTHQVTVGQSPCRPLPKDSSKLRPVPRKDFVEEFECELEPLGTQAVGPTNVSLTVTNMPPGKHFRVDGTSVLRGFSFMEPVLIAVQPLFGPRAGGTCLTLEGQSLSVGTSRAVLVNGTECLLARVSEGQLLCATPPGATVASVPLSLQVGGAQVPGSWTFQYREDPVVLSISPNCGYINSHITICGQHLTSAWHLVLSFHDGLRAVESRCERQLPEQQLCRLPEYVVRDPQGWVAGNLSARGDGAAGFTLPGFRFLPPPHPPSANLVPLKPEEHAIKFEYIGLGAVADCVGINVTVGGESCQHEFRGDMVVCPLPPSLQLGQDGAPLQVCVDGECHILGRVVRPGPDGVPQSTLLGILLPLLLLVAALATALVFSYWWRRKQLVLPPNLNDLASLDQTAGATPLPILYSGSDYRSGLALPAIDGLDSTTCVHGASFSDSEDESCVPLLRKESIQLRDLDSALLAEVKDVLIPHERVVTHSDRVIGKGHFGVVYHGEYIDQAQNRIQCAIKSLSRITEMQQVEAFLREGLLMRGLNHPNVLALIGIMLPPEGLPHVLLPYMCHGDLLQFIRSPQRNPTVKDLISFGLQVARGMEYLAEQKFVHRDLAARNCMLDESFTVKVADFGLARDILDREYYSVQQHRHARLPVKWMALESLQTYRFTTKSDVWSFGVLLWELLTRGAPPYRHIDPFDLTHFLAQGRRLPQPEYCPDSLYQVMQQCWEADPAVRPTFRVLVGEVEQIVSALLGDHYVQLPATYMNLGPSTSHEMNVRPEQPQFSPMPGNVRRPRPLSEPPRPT
UniProt Q13976, sequence (whole entry, looked up): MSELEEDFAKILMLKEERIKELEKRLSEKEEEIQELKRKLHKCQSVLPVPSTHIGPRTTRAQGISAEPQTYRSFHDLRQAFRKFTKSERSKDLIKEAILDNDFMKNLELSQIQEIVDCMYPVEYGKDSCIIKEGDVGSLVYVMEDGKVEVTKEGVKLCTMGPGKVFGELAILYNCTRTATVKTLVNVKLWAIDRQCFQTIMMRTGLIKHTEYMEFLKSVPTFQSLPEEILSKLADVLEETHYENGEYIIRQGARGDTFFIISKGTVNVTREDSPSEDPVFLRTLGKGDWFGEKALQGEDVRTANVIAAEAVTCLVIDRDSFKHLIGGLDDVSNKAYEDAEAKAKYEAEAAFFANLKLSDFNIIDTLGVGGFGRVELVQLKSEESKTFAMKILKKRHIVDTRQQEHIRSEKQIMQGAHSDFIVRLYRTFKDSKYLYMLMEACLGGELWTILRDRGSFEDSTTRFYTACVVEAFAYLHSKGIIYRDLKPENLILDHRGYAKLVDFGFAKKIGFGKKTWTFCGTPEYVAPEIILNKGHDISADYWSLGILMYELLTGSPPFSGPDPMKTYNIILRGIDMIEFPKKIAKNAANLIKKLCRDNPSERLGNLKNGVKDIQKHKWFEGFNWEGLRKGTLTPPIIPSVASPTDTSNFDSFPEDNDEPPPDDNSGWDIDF
UniProt Q9Y6M4, sequence (whole entry, looked up): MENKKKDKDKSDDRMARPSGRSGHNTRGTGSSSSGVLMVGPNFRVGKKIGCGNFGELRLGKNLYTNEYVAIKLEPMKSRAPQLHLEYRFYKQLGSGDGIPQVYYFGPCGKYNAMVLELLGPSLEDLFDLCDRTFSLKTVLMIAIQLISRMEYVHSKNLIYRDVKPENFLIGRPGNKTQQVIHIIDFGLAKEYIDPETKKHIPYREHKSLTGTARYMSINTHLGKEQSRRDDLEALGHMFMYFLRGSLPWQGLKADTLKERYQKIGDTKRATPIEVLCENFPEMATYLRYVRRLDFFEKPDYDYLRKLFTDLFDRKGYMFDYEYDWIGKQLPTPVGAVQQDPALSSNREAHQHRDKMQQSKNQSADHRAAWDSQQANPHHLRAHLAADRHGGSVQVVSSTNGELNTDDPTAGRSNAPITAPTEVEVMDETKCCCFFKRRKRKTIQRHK
UniProt Q13153, sequence (whole entry, looked up): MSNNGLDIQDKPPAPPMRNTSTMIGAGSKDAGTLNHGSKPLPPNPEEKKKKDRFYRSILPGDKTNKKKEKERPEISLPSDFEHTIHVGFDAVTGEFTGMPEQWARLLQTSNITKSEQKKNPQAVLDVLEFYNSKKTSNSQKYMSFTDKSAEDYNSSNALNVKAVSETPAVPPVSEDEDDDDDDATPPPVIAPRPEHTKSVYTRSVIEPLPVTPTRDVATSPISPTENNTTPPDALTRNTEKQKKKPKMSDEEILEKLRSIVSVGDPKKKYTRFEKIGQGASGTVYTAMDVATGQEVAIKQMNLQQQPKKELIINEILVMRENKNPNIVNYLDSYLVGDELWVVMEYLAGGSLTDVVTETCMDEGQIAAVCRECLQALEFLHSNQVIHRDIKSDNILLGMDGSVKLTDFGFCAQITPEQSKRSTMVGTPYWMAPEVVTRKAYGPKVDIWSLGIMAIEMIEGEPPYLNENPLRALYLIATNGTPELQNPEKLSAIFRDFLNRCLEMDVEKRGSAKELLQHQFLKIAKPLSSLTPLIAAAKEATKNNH
UniProt P49841, sequence (whole entry, looked up): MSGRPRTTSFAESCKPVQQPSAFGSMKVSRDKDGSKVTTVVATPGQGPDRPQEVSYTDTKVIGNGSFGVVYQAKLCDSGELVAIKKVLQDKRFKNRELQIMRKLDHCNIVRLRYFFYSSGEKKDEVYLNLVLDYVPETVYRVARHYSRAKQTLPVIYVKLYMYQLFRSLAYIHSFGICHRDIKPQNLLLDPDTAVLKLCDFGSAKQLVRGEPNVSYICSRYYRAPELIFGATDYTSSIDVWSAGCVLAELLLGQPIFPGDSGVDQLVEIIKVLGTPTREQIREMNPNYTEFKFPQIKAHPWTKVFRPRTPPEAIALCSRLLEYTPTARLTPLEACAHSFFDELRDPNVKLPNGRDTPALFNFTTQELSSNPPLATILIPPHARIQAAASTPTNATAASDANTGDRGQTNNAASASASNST
UniProt P45984, sequence (whole entry, looked up): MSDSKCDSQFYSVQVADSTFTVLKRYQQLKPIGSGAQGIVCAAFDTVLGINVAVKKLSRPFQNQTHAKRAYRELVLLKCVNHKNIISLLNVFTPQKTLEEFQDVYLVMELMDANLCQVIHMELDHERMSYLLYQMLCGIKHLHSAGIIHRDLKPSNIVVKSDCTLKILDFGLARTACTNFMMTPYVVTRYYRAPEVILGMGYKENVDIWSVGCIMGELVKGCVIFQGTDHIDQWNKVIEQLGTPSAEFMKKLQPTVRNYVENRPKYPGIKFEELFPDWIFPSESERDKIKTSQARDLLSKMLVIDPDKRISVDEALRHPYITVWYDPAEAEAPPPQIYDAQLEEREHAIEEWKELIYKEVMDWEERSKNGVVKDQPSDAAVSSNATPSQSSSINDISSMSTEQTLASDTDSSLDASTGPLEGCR
UniProt P06241, sequence (whole entry, looked up): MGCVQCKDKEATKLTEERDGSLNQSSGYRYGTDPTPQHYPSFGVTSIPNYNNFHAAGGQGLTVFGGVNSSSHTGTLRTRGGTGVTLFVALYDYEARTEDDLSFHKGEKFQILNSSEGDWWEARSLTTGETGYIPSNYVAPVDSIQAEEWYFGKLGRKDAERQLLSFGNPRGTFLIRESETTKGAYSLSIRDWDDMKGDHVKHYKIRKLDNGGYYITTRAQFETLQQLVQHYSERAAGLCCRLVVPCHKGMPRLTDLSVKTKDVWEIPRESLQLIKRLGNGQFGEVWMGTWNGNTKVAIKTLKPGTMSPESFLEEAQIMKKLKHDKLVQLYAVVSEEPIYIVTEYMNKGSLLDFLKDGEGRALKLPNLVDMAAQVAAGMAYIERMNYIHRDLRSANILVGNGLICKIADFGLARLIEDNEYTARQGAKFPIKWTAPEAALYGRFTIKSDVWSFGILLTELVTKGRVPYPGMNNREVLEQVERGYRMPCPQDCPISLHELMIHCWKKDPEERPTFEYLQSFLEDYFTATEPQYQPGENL
UniProt P06493, sequence (whole entry, looked up): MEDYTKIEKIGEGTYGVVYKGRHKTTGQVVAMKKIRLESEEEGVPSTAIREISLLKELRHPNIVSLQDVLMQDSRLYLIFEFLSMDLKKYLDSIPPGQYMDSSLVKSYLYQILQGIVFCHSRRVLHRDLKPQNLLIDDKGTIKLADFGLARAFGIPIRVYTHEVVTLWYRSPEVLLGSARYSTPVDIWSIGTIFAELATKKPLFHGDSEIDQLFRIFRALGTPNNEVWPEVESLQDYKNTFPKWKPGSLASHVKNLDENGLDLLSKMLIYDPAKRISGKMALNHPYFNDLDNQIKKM

Block 1
Compound: CN(C1COC1)C(C)(C)/C=C(\C#N)C(=O)N1CCC[C@H]1Cn1nc(-c2ccc(Oc3ccccc3)cc2F)c2c(N)ncnc21
Effect on: kinase activity
Endpoint: inhibition
target = PRKACA (Homo sapiens, UniProt P17612); tested at = 0.1 µM; result = -1%
target = Protein kinase C beta type, isoform beta-I (PRKCB, Homo sapiens, UniProt P05771); tested at = 0.1 µM; result = 5%
target = CDK1 (Homo sapiens, UniProt P06493); tested at = 0.1 µM; result = 6%
target = PRKG1 (Homo sapiens, UniProt Q13976); tested at = 0.1 µM; result = 0%
target = CSNK1G3 (Homo sapiens, UniProt Q9Y6M4); tested at = 1 µM; result = 14%
target = RPS6KA1 (Homo sapiens, UniProt Q15418); tested at = 1 µM; result = -2%
target = FYN (Homo sapiens, UniProt P06241); tested at = 1 µM; result = 64%
target = CDC42BPB (Homo sapiens, UniProt Q9Y5S2); tested at = 1 µM; result = -4%
target = MST1R (Homo sapiens, UniProt Q04912); tested at = 1 µM; result = -3%
target = FGFR1 (Homo sapiens, UniProt P11362); tested at = 0.1 µM; result = 7%
target = RPS6KA4 (Homo sapiens, UniProt O75676); tested at = 0.1 µM; result = 5%
target = MAPK9 (Homo sapiens, UniProt P45984); tested at = 0.1 µM; result = -1%
target = GSK3B (Homo sapiens, UniProt P49841); tested at = 0.1 µM; result = -11%
target = PAK1 (Homo sapiens, UniProt Q13153); tested at = 0.1 µM; result = 0%
target = AKT2 (Homo sapiens, UniProt P31751); tested at = 0.1 µM; result = 1%

Block 2
SMILES: Cc1ccc(O)c(C)c1-c1cnc2[nH]c(-c3cnc(N4CCC5(CC4)CC(N4CCN(c6ccc(NC7CCC(=O)NC7=O)cc6F)CC4)CO5)nc3)cc2c1C#N (stereo not shown)
Cell line: HCC1569
Effect on: CDK1 Thr14 phosphorylation
Method: in-cell western
Reading: lower = stronger inhibition
Endpoint: phospho-CDK1 (Thr14) level
tested at = 333.33 nM; result = 115 a.u.
tested at = 37.04 nM; result = 62.2 a.u. and 53.1 a.u.
tested at = 1000.00 nM; result = 118 a.u.

Block 3
Structure (SMILES): Cc1ncsc1-c1ccc(C(CO)NC(=O)C2CC(O)CN2C(=O)C(C(C)C)n2cc(-c3ccc(COc4c(-c5c(C)c(F)cc6[nH]ncc56)c(C5CC5)cc5c(N6CC7CC6CN7)nc(OC6CCOCC6)nc45)cc3)nn2)cc1 (stereo not shown)
Effect on: cell growth or viability
Method: ATP luminescence
Time: 6 days
Endpoint: viability
cell line = COLO 320; tested at = 10 µM; result = 80.1% and 83.2% and 103% and 94.8%
cell line = NCI-H1299; tested at = 30 nM; result = 128% and 114% and 96.9% and 101%
cell line = PK-59; tested at = 3 nM; result = 84.7% and 77.4% and 86.3% and 85.6%
cell line = GP5d; tested at = 1 µM; result = 29.5% and 36.7% and 34.2% and 29.6%
cell line = HT-29; tested at = 3 nM; result = 94.3% and 93.6% and 95.2% and 84.6%
cell line = GP5d; tested at = 0.3 µM; result = 38.1% and 32.7% and 25.5% and 29.8%
cell line = PaTu 8902; tested at = 1 nM; result = 121% and 100% and 108% and 102%

Block 4
SMILES: O=C(O)C1(O)Oc2ccccc2N(Cc2ccccc2)C1=O (stereo not shown)
Endpoint: inhibition
organism = Arabidopsis thaliana; assay = root length; system = Col-0, seedlings; conditions = 12.5 µg/mL; result = 4.59%
organism = Echinochloa crus-galli; assay = fresh weight; conditions = 150 g ai/ha, post-emergence treatment; result = 26% and 28.7% and 24.2%
organism = Arabidopsis thaliana; assay = root length; system = Col-0, seedlings; conditions = 100 µg/mL; how to read = relative to: water control; result = 43.6%
organism = Arabidopsis thaliana; assay = hypocotyl length; system = Col-0; conditions = 6.25 µg/mL, 7 days, seed germination, dark; result = 0.9%
organism = Arabidopsis thaliana; assay = root length; system = Col-0, seedlings; conditions = 3.125 µg/mL; how to read = relative to: water control; result = 6.2%
organism = Arabidopsis thaliana; assay = hypocotyl length; system = Col-0, seedlings; conditions = 25 µg/mL; result = 28.4%
organism = Arabidopsis thaliana; assay = hypocotyl length; system = Col-0, seedlings; conditions = 6.25 µg/mL; result = 8.46%
organism = Alopecurus aequalis; assay = fresh weight; conditions = 150 g ai/ha, pre-emergence treatment; result = 100%
organism = Arabidopsis thaliana; assay = root length; system = Col-0; conditions = 50.0 µg/mL, 7 days, seed germination, dark; result = 22%
organism = Abutilon theophrasti; assay = fresh weight; conditions = 150 g ai/ha, pre-emergence treatment; result = 12.6% and 11.8% and 13.1%
organism = Triticum aestivum; assay = fresh weight; conditions = soil surface spray, 150 g ai/ha, 21 days, pre-emergence crop safety; result = 17.2% and 19.4% and 18.9%
organism = Arabidopsis thaliana; assay = root length; system = Col-0; conditions = 6.25 µg/mL, 7 days, seed germination, dark; result = 7.2%
organism = Arabidopsis thaliana; assay = hypocotyl length; system = Col-0; conditions = 50.0 µg/mL, 7 days, seed germination, dark; result = 25.1%
organism = Arabidopsis thaliana; assay = root length; system = Col-0, seedlings; conditions = 6.25 µg/mL; result = 3.91%
organism = Oryza sativa; assay = fresh weight; conditions = soil surface spray, 150 g ai/ha, 21 days, pre-emergence crop safety; result = 4% and 5% and 4.8%

Excerpt of the above (block 1):
target = PRKG1 (Homo sapiens, UniProt Q13976); tested at = 0.1 µM; result = 0%
target = CSNK1G3 (Homo sapiens, UniProt Q9Y6M4); tested at = 1 µM; result = 14%
target = RPS6KA1 (Homo sapiens, UniProt Q15418); tested at = 1 µM; result = -2%
target = FYN (Homo sapiens, UniProt P06241); tested at = 1 µM; result = 64%
target = CDC42BPB (Homo sapiens, UniProt Q9Y5S2); tested at = 1 µM; result = -4%
